Assay results pooled from the literature.
Lines come from different studies, so protocols differ. ± gives the spread as reported.
SLC22A2: Solute carrier family 22 member 2 (SLC22A2, Homo sapiens, UniProt O15244)
Sequence of UniProt O15244 (whole entry, looked up): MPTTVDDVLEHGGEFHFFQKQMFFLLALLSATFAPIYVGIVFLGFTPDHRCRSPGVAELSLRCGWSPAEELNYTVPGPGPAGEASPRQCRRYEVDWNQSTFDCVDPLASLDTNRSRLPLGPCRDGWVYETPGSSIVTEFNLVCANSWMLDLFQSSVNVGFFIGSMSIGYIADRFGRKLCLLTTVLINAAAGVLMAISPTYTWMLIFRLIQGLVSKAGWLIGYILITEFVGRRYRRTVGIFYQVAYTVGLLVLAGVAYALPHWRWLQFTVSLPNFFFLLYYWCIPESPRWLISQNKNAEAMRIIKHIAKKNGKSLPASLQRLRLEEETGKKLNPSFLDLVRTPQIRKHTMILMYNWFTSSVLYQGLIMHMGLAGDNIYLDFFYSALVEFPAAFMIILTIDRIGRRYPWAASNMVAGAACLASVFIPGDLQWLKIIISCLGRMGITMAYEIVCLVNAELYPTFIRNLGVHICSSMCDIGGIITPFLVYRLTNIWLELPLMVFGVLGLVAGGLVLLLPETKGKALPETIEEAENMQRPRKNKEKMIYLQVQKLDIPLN
NR1I2: Nuclear receptor subfamily 1 group I member 2 (NR1I2, Homo sapiens, UniProt O75469)
Sequence of UniProt O75469 (whole entry, looked up): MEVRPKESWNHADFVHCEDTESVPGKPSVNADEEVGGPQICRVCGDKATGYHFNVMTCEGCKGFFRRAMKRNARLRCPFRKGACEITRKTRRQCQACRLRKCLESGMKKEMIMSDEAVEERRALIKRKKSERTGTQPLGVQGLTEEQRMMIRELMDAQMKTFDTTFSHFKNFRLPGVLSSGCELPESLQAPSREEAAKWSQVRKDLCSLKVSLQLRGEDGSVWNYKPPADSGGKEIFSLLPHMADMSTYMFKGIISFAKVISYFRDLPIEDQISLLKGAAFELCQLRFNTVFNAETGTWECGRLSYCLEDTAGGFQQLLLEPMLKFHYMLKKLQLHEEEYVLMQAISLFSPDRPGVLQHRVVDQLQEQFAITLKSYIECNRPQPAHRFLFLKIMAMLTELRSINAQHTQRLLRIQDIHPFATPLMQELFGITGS
ALB: Albumin (ALB, Homo sapiens, UniProt P02768)
Sequence of UniProt P08183 (whole entry, looked up): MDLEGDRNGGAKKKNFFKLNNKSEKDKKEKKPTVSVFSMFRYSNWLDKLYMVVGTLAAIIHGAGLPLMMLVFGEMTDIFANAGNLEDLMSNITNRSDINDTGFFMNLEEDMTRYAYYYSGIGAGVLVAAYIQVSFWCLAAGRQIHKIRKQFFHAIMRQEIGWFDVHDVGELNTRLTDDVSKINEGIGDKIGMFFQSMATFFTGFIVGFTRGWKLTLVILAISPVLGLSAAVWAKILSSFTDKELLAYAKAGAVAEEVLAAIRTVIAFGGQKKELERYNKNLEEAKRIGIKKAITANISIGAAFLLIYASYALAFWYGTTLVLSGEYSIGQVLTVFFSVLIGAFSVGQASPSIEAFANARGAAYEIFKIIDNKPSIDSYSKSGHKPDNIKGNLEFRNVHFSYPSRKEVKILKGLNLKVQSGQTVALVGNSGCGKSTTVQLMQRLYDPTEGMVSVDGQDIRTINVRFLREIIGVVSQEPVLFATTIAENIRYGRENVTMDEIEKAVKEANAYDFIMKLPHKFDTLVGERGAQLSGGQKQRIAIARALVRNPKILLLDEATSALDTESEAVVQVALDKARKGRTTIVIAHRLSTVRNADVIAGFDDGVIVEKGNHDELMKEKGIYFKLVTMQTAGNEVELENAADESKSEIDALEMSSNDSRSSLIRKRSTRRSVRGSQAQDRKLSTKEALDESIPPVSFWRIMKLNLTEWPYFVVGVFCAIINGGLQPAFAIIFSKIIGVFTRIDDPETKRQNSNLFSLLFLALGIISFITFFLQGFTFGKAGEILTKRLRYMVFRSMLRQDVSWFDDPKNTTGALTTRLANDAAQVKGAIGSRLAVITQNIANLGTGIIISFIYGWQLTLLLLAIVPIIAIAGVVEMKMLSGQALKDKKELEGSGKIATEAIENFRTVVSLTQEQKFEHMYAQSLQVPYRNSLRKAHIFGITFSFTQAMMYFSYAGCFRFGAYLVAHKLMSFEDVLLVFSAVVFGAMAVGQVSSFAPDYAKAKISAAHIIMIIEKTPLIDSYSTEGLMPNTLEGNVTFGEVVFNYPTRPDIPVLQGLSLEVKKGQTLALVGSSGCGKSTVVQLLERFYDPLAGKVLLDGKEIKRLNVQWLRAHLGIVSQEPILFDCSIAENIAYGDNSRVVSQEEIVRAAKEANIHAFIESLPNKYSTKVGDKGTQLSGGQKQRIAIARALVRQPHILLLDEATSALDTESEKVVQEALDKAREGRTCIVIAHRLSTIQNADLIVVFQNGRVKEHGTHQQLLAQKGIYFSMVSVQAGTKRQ
Sequence of UniProt P07724 (whole entry, looked up): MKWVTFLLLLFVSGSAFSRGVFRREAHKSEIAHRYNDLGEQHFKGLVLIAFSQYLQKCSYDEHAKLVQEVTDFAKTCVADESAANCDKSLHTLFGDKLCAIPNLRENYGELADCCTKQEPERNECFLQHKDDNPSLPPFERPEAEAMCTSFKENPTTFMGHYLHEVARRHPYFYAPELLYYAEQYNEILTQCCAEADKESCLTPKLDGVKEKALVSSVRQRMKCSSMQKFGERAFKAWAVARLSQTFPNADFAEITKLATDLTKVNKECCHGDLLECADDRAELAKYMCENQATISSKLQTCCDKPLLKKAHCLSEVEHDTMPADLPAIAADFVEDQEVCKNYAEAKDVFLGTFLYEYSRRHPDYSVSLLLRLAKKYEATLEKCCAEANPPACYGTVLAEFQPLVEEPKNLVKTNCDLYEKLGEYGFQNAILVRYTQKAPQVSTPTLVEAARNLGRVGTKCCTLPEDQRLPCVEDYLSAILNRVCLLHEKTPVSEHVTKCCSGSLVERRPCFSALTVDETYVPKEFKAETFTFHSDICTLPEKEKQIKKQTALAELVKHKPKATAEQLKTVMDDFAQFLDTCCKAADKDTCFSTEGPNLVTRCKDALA

Compound = NC(=O)c1nc(F)c[nH]c1=O; target = SLC22A2; test = transport, inhibitor; system = transiently transfected cells; conditions = 100 µM, 10 (unit not given), added: metformin; quantity = inhibition; result = -10.1%
Compound = CC1(C)SSC[C@H](NC(=O)[C@H](Cc2ccccc2)NC(=O)[C@@H](NC(=O)[C@H](Cc2ccccc2)NC(=O)C2(NC(=O)[C@H](Cc3ccc4ccccc4c3)NC(=O)[C@H](CCCCN)NC(=O)CCCCCNC(=O)[C@@H](N)CCCCNC(=O)CCCC[C@@H]3SC[C@@H]4NC(=O)N[C@@H]43)CCNCC2)C2CCCC2)C(=O)N2C[C@H](O)C[C@H]2C(=O)N[C@@H](Cc2ccccc2)C(=O)N[C@@H](Cc2ccc(O)cc2)C(=O)N[C@@H](Cc2ccc(O)cc2)C(=O)N[C@@H](CCCCN)C(=O)N2C[C@H](O)C[C@H]2C(=O)N[C@@H]1C(=O)N[C@@H](CCCCN)C(N)=O; target = Chymotrypsinogen A (Bos taurus, UniProt P00766); test = substrate, LC-MS; conditions = added: Chymotrypsinogen A 0.5 mg/mL; quantity = t1/2; result = 3.33 h
Compound = CC[C@H](C)[C@H](NC(=O)[C@H](CC(C)C)NC(=O)[C@H](CCCNC(=N)N)NC(=O)[C@@H](N)CCCNC(=N)N)C(=O)N[C@@H](CCCNC(=N)N)C(=O)N[C@@H](CCCCN)C(=O)N[C@@H](CC(C)C)C(=O)N[C@@H](CCCCN)C(=O)NCC(=O)N[C@@H](CC(C)C)C(=O)N[C@@H](CCCCN)C(=O)N[C@@H](CCCCN)C(=O)N[C@@H](Cc1ccc(O)cc1)C(=O)N[C@@H](CC(C)C)C(=O)N[C@@H](Cc1ccc(O)cc1)C(=O)N[C@@H](Cc1ccccc1)C(=O)N[C@@H](CCCCN)C(=O)N[C@@H](CC(C)C)C(=O)N[C@@H](CCC(N)=O)C(=O)N[C@@H](CC(C)C)C(=O)N[C@@H](CC(C)C)C(=O)N[C@@H](CCCCN)C(=O)N[C@@H](CCCCN)C(N)=O; target = trypsin; test = substrate, HPLC; conditions = 150 µM, pH 7.4, 37 °C, added: trypsin 0.06 µg/mL; quantity = time to near-complete degradation; result = 18 to 20 h
Compound = CN(C)C(=O)COC(=O)Cc1ccc(OC(=O)c2ccc(NC(=N)N)cc2)cc1; target = SLC22A2; test = transport, inhibitor; system = transiently transfected cells; conditions = 100 µM, 10 (unit not given), added: metformin; quantity = inhibition; result = 34%
Compound = Cc1c(COC(=O)[C@@H]2[C@H](/C=C(\Cl)C(F)(F)F)C2(C)C)cccc1-c1ccccc1 (racemic); target = human CYP2C19; test = IVIVE from expressed enzymes; system = human, liver, in vivo scaled; conditions = 0.1 µM, age-specific; quantity = enzyme contribution to CLint; result = 53.9%
Compound = CCCCCCCCc1ccc(CCC(N)(CO)CO)cc1; target = SLC22A2; test = transport, inhibitor; system = transiently transfected cells; conditions = 100 µM, 10 (unit not given), added: metformin; quantity = inhibition; result = -2.5%
Compound = CC(C)(C)C(=O)C1C(=O)c2ccccc2C1=O; target = NR1I2; conditions = concentration not given; quantity = activity; result = inactive
Compound = CC(C)CC(=O)OC[C@H]1O[C@@](C#N)(c2ccc3c(N)ncnn23)[C@H](O)[C@@H]1O; target = ABCB1 (Homo sapiens, UniProt P08183); system = Caco-2; conditions = concentration not given, 2 h; quantity = efflux rate; result = < 10%
Compound = N#Cc1ccc([C@H]2CCc3cncn32)c(F)c1; target = CYP3A4/5 (human); test = inhibitor, item: midazolam 1'-hydroxylation; system = pooled human liver microsomes; conditions = pH 7.4, added: midazolam 1 µM; quantity = IC50; result = 6.5 µM
Compound = CCOc1ccc(-c2nc3ccc(-c4nc5ccc(N6CCN(C)CC6)cc5[nH]4)cc3[nH]2)cc1; target = Albumin (Mus musculus, UniProt P07724); test = binding, second site, fluorescence titration; system = PBS; quantity = Kd; result = > 100 µM
Compound = COc1cc(-c2[o+]c3cc(O)cc(O)c3cc2O[C@@H]2O[C@H](CO)[C@@H](O)[C@H](O)[C@H]2O)cc(OC)c1O; target = ALB; test = binding, fluorescence quenching; conditions = pH 7, 40 °C, HSA 2 µM; quantity = Kd; result = 104 ± 8.04 µM
Compound = Cc1oncc1C(=O)Nc1ccc(C(F)(F)F)cc1; target = SLC22A2; test = transport, inhibitor; system = transiently transfected cells; conditions = 100 µM, 10 (unit not given), added: metformin; quantity = inhibition; result = 5.9%
Compound = CC1(C)[C@H](C(=O)OCc2cccc(Oc3ccccc3)c2)[C@@H]1C=C(Cl)Cl; target = human CYP2C19; test = IVIVE from expressed enzymes; system = human, liver, in vivo scaled; conditions = 0.1 µM, age-specific; quantity = enzyme contribution to CLint; result = 3.51%
Compound = Clc1ccccc1-c1ccccc1Cl; target = NR1I2; test = agonist, item: CYP3A4; system = differentiated HepaRG; conditions = concentration not given, 24 h; scale = relative to: maximum rifampicin induction; quantity = mRNA level; result = < 20%
Compound = CC1(C)C(C=C(Cl)Cl)C1C(=O)OC(C#N)c1ccc(F)c(Oc2ccccc2)c1 (stereo not shown); target = human CYP3A4; test = IVIVE from expressed enzymes; system = human, liver, in vivo scaled; conditions = 0.1 µM, age-specific; quantity = enzyme contribution to CLint; result = 1.12%
Compound = CCS(=O)(=O)N1CC(CC#N)(n2cc(-c3ncnc4[nH]ccc34)cn2)C1; target = SLC22A2; test = transport, inhibitor; conditions = 50 µM, 10 (unit not given), added: metformin; quantity = inhibition; result = 47.5%
Compound = CO[C@H]1C[C@H](O[C@@H]2/C(C)=C/C[C@@H]3C[C@@H](C[C@]4(CC[C@H](C)[C@@H](C5CCCCC5)O4)O3)OC(=O)[C@@H]3C=C(C)/C(=N/O)[C@H]4OC/C(=C\C=C\[C@@H]2C)[C@]43O)O[C@@H](C)[C@@H]1O; target = NR1I2; conditions = concentration not given; quantity = activity; result = inactive
Compound = CC[C@H](C)[C@H](NC(=O)[C@H](CCCCN)NC(=O)[C@H](CCC(=O)O)NC(=O)[C@H](CCCCN)NC(=O)[C@H](CO)NC(=O)[C@H](CCCCN)NC(=O)[C@H](CCCNC(=N)N)NC(=O)[C@H](Cc1ccccc1)NC(=O)[C@H](Cc1ccccc1)NC(=O)[C@H](CC(=O)O)NC(=O)CNC(=O)[C@H](CC(C)C)NC(=O)[C@@H](N)CC(C)C)C(=O)NCC(=O)N[C@@H](CCCCN)C(=O)N[C@@H](CCC(=O)O)C(=O)N[C@@H](Cc1ccccc1)C(=O)N[C@@H](CCCCN)C(=O)N[C@@H](CCCNC(=N)N)C(=O)N[C@H](C(=O)N[C@H](C(=O)N[C@@H](CCC(N)=O)C(=O)N[C@@H](CCCNC(=N)N)C(=O)N[C@H](C(=O)N[C@@H](CCCCN)C(=O)N[C@@H](CC(=O)O)C(=O)N[C@@H](Cc1ccccc1)C(=O)N[C@@H](CC(C)C)C(=O)N[C@@H](CCCNC(=N)N)C(=O)N[C@@H](CC(N)=O)C(=O)N[C@@H](CC(C)C)C(=O)N[C@H](C(=O)N1CCC[C@H]1C(=O)N[C@@H](CCCNC(=N)N)C(=O)N[C@H](C(=O)N[C@@H](CCC(=O)O)C(=O)N[C@@H](CO)C(=O)O)[C@@H](C)O)C(C)C)[C@@H](C)CC)C(C)C)[C@@H](C)CC; target = trypsin; test = LC-MS; conditions = 40 µM, 120 min, pH 7.5, 37 °C; scale = relative to: 0 h; quantity = remaining intact peptide; result = 2.07%
Compound = CCC(CC)COC(=O)[C@H](C)N[P@](=O)(OC[C@H]1O[C@@](C#N)(c2ccc3c(N)ncnn23)[C@H](O)[C@@H]1O)Oc1ccccc1; target = SLC22A2; test = transport, inhibitor; system = transiently transfected cells; conditions = 100 µM, 10 (unit not given), added: metformin; quantity = inhibition; result = 30.8%
Compound = CC1(C)NC(=O)N(c2cc(Cl)c(F)c(C(F)(F)F)c2)C1=O; target = ALB; quantity = unbound fraction; result = 0.15
Compound = COc1cc2nc(N3CCN(C(=O)c4ccco4)CC3)nc(N)c2cc1OC; target = SLC22A2; test = transport, inhibitor; conditions = 100 µM; quantity = inhibition; result = 37.7%
Compound = O=C(Nc1c2c(cc3c1CCC3)CCC2)NS(=O)(=O)/C=C/c1nccs1; target = human CYP3A4; system = human liver microsomes; conditions = 10 µM, pH 7.4, added: midazolam; quantity = inhibition; result = < 0%

Repeated from above:
Compound = CC1(C)SSC[C@H](NC(=O)[C@H](Cc2ccccc2)NC(=O)[C@@H](NC(=O)[C@H](Cc2ccccc2)NC(=O)C2(NC(=O)[C@H](Cc3ccc4ccccc4c3)NC(=O)[C@H](CCCCN)NC(=O)CCCCCNC(=O)[C@@H](N)CCCCNC(=O)CCCC[C@@H]3SC[C@@H]4NC(=O)N[C@@H]43)CCNCC2)C2CCCC2)C(=O)N2C[C@H](O)C[C@H]2C(=O)N[C@@H](Cc2ccccc2)C(=O)N[C@@H](Cc2ccc(O)cc2)C(=O)N[C@@H](Cc2ccc(O)cc2)C(=O)N[C@@H](CCCCN)C(=O)N2C[C@H](O)C[C@H]2C(=O)N[C@@H]1C(=O)N[C@@H](CCCCN)C(N)=O; target = Chymotrypsinogen A (Bos taurus, UniProt P00766); test = substrate, LC-MS; conditions = added: Chymotrypsinogen A 0.5 mg/mL; quantity = t1/2; result = 3.33 h
Compound = N#Cc1ccc([C@H]2CCc3cncn32)c(F)c1; target = CYP3A4/5 (human); test = inhibitor, item: midazolam 1'-hydroxylation; system = pooled human liver microsomes; conditions = pH 7.4, added: midazolam 1 µM; quantity = IC50; result = 6.5 µM
Compound = CCC(CC)COC(=O)[C@H](C)N[P@](=O)(OC[C@H]1O[C@@](C#N)(c2ccc3c(N)ncnn23)[C@H](O)[C@@H]1O)Oc1ccccc1; target = SLC22A2; test = transport, inhibitor; system = transiently transfected cells; conditions = 100 µM, 10 (unit not given), added: metformin; quantity = inhibition; result = 30.8%
